Results of several laboratories.
Compare with care: the assays were run in different laboratories. Numbers after ± are the reported error.

C[C@H](O)[C@@H](NC(=O)[C@H]1CCCN1C(=O)[C@@H](CCCCN)NC(=O)[C@@H](CO)NC(=O)[C@@H](Cc1ccc(O)cc1)NC(=O)[C@@H](CC(N)=O)NC(=O)CCOCCOCCOCCNC(=O)CN1CCN(CC(=O)O)CCN(CC(=O)O)CCN(CC(=O)O)CC1)C(=O)N[C@H](CC(=O)O)C(=O)N[C@H](CCCNC(=N)N)C(=O)N[C@H](CCC(N)=O)C(=O)N[C@H](Cc1ccc(O)cc1)C(=O)N[C@H](Cc1c[nH]cn1)C(=O)N[C@H](Cc1ccccc1)C(N)=O [gallium-68 labelled] has a tissue uptake of 0.05 ± 0.02 %ID/g (BALB/c nude mice U-87 MG tumour, heart; intravenous, 1.85 MBq, 2 h, radiolabelled).
The tissue uptake of CSCC[C@H](NC(=O)CNC(=O)[C@H](CCCCN)NC(=O)[C@H](CC(C)C)NC(=O)[C@@H]1CCCN1C(=O)[C@H](CO)NC(=O)[C@H](Cc1c[nH]cn1)NC(=O)[C@H](Cc1c[nH]c2ccccc12)NC(=O)[C@H](CCCNC(=N)N)NC(=O)[C@H](CC(C)C)NC(=O)[C@H](CCCNC(=N)N)NC(=O)[C@H](Cc1c[nH]c2ccccc12)NC(=O)[C@H](CS)NC(=O)CCCCCNC(=O)CN1CCN(CC(=O)O)CCN(CC(=O)O)CCN(CC(=O)O)CC1)C(=O)O [copper-64 labelled] is reported as 1.23 %ID/g (ex vivo biodistribution; BALB/c nude mice, bone; intravenous, dose not given, 6 h, Huh-7 tumour-bearing).
CC[C@H](C)[C@H](NC(=O)[C@H](CCCNC(=N)N)NC(=O)[C@H](CCCCN)NC(=O)[C@H](Cc1ccc(O)cc1)NC(=O)[C@H](CC(=O)O)NC(=O)[C@H](C)NC(=O)CNC(=O)CCOCCOCCOCCNC(=O)CN1CCN(CC(=O)O)CCN(CC(=O)O)CCN(CC(=O)O)CC1)C(=O)N[C@H](C(=O)N[C@H](C(=O)N[C@@H](CCCCN)C(=O)N[C@H](C(=O)N[C@@H](CC(N)=O)C(N)=O)C(C)C)C(C)C)[C@@H](C)O [copper-64 labelled] gave a tissue uptake of 0.534 ± 0.119 %ID/g (ex vivo gamma counting; C57BL/6J male mice, B16-F10 tumour, pancreas; intravenous, 1.85 MBq, 100 min).
CC[C@H](C)[C@H](NC(=O)[C@@H](Cc1c[nH]c2ccccc12)NC(=O)[C@@H]1CCCN1C(=O)[C@H](CCCCN)NC(=O)[C@H](CCCCN)NC(=O)CCNC(=O)CCNC(=O)CN1CCN(CC(=O)O)CCN(CC(=O)O)CCN(CC(=O)O)CC1)C(=O)N[C@@H](C[Si](C)(C)C)C(=O)O [gallium-68 labelled] gave a tissue uptake of 0.44 ± 0.42 %ID/g (ex vivo biodistribution; nude mice, HT-29 xenograft, muscle; 90 min, together with: levocabastine 0.5 µmol).
The tissue uptake of CC[C@H](C)[C@H](NC(=O)[C@H](CCCCN)NC(=O)CNC(=O)[C@H](CC(C)C)NC(=O)[C@H](Cc1ccccc1)NC(=O)[C@H](CCCCN)NC(=O)[C@H](CO)NC(=O)[C@H](Cc1ccccc1)NC(=O)[C@H](Cc1c[nH]c2ccccc12)NC(=O)[C@H](CCC(N)=O)NC(=O)[C@@H](NC(=O)[C@H](Cc1ccccc1)NC(=O)CCCCCNC(=O)CN1CCN(CC(=O)O)CCN(CC(=O)O)CCN(CC(=O)O)CC1)C(C)C)C(=O)N[C@@H](CCC(=O)O)C(=O)N1CCC[C@H]1C(=O)N[C@@H](CC(=O)O)C(=O)N[C@H](C(=O)N[C@@H](CO)C(=O)N[C@@H](CCC(N)=O)C(=O)N[C@H](C(=O)N[C@@H](CCC(N)=O)C(=O)N[C@@H](CC(=O)O)C(=O)N1CCC[C@H]1C(=O)N[C@@H](CC(N)=O)C(=O)N[C@@H](CC(=O)O)C(=O)N[C@@H](CCC(N)=O)C(=O)N[C@@H](Cc1ccc(O)cc1)C(=O)N[C@@H](CCC(=O)O)C(=O)N1CCC[C@H]1C(=O)N[C@@H](Cc1ccccc1)C(=O)O)C(C)C)C(C)C [copper-64 labelled] is reported as 6.52 ± 0.3 %ID/g (C57BL/6 mice, small intestine; together with: LPS 3 mg/kg intratracheal).
CCCC[C@H]1C(=O)N(C)[C@@H](CCCC)C(=O)N[C@@H](CCCNC(=O)CN2CCN(CC(=O)O)CCN(CC(=O)O)CCN(CC(=O)O)CC2)C(=O)N[C@H](C(=O)NCC(N)=O)CSCC(=O)N[C@@H](Cc2ccc(O)cc2)C(=O)N(C)[C@@H](C)C(=O)N[C@@H](CC(N)=O)C(=O)N2CCC[C@H]2C(=O)N[C@@H](Cc2c[nH]cn2)C(=O)N[C@@H](CC(C)C)C(=O)N(C)CC(=O)N[C@@H](Cc2c[nH]c3ccccc23)C(=O)N[C@@H](CO)C(=O)N[C@@H](Cc2c[nH]c3ccccc23)C(=O)N1C [gallium-68 labelled] gave a tissue uptake of 7.35 ± 1.35 %ID/g (NOD/SCID mice, CHO-hPD-L1 xenograft, liver; 60 min, PBS pretreatment).
The tissue uptake of CC[C@H](C)[C@H](NC(=O)[C@H](CCCNC(=N)N)NC(=O)[C@H](CCCCN)NC(=O)[C@H](Cc1ccc(O)cc1)NC(=O)[C@H](CC(=O)O)NC(=O)[C@H](C)NC(=O)CNC(=O)CCOCCOCCOCCNC(=O)CN1CCN(CC(=O)O)CCN(CC(=O)O)CCN(CC(=O)O)CC1)C(=O)N[C@H](C(=O)N[C@@H](CC(C)C)C(=O)N[C@@H](CCCCN)C(=O)N[C@H](C(=O)N[C@@H](CC(N)=O)C(N)=O)C(C)C)[C@@H](C)O [copper-64 labelled] is reported as 3.26 ± 1.48 %ID/g (ex vivo gamma counting; C57BL/6J male mice, B16-F10 tumour, liver; intravenous, 1.85 MBq, 20 min).
With CC(C)C[C@@H](NC(=O)[C@@H](CCCNC(=N)N)NC(=O)[C@@H](Cc1c[nH]cn1)NC(=O)[C@@H](Cc1c[nH]c2ccccc12)NC(=O)[C@@H](Cc1c[nH]cn1)NC(=O)[C@@H](Cc1ccccc1)NC(=O)[C@H](NC(=O)[C@@H](Cc1ccc(O)cc1)NC(=O)CNC(=O)CNC(=O)CCOCCOCCOCCNC(=O)CN1CCN(CC(=O)O)CCN(CC(=O)O)CC1)[C@H](C)O)C(=O)N[C@H](CC(N)=O)C(=O)N1CCC[C@@H]1C(=O)O [gallium-68 labelled] the tissue uptake was 0.42 ± 0.05 %ID/g (gamma counting; C57BL/6 mice, male, brain; intravenous, 1.85 MBq, 60 min).

Some of these lines once more:
The tissue uptake of CC[C@H](C)[C@H](NC(=O)[C@H](CCCCN)NC(=O)CNC(=O)[C@H](CC(C)C)NC(=O)[C@H](Cc1ccccc1)NC(=O)[C@H](CCCCN)NC(=O)[C@H](CO)NC(=O)[C@H](Cc1ccccc1)NC(=O)[C@H](Cc1c[nH]c2ccccc12)NC(=O)[C@H](CCC(N)=O)NC(=O)[C@@H](NC(=O)[C@H](Cc1ccccc1)NC(=O)CCCCCNC(=O)CN1CCN(CC(=O)O)CCN(CC(=O)O)CCN(CC(=O)O)CC1)C(C)C)C(=O)N[C@@H](CCC(=O)O)C(=O)N1CCC[C@H]1C(=O)N[C@@H](CC(=O)O)C(=O)N[C@H](C(=O)N[C@@H](CO)C(=O)N[C@@H](CCC(N)=O)C(=O)N[C@H](C(=O)N[C@@H](CCC(N)=O)C(=O)N[C@@H](CC(=O)O)C(=O)N1CCC[C@H]1C(=O)N[C@@H](CC(N)=O)C(=O)N[C@@H](CC(=O)O)C(=O)N[C@@H](CCC(N)=O)C(=O)N[C@@H](Cc1ccc(O)cc1)C(=O)N[C@@H](CCC(=O)O)C(=O)N1CCC[C@H]1C(=O)N[C@@H](Cc1ccccc1)C(=O)O)C(C)C)C(C)C [copper-64 labelled] is reported as 6.52 ± 0.3 %ID/g (C57BL/6 mice, small intestine; together with: LPS 3 mg/kg intratracheal).
